Measured values collected from several papers.
Parts stem from different laboratories: compare values within a part only.
UniProt P08183, sequence (whole entry, looked up): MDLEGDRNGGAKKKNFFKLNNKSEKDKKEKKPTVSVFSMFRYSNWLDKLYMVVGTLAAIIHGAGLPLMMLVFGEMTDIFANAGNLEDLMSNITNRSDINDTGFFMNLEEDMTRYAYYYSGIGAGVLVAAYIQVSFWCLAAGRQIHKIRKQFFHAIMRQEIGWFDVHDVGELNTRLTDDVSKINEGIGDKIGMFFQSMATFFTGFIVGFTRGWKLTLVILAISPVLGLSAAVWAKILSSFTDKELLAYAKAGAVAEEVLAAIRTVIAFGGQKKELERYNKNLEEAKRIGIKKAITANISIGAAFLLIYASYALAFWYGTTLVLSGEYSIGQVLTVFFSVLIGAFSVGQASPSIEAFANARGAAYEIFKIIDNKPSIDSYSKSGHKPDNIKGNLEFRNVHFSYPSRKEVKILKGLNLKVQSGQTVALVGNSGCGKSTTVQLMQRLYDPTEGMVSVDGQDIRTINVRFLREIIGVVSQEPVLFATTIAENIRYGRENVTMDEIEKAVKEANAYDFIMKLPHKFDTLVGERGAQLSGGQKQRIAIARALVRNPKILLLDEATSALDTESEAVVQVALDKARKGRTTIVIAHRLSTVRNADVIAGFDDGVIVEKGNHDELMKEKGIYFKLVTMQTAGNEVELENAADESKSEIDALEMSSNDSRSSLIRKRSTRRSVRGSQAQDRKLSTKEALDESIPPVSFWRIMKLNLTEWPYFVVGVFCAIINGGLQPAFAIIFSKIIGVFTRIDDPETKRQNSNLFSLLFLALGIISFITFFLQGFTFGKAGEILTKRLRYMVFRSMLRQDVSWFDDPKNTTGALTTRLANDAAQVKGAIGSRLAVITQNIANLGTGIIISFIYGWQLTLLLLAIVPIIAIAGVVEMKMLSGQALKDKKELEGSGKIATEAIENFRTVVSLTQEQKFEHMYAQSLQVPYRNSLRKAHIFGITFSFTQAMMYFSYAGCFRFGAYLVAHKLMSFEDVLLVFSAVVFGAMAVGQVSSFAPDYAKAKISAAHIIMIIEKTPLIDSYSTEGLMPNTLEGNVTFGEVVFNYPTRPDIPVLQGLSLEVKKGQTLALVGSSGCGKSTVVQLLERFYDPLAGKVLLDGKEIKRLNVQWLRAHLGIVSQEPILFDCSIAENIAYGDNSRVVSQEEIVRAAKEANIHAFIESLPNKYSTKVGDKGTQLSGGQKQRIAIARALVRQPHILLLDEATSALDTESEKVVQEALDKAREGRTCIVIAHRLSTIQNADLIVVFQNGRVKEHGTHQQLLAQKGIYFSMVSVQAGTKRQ

Set 1
SMILES: C[C@@H]1CN(c2ccc(-c3cc(C(=O)NCCOCCOCCOCCOCCNC(=O)Cn4cc(-c5[nH]cc(C(=O)N[C@@H](CC(N)=O)c6ccc(F)c(Cl)c6)c5-c5ccc(Cl)cc5F)cn4)ccc3F)cc2NC(=O)c2c[nH]c(=O)cc2C(F)(F)F)C[C@H](C)N1C
Effect on: thermal unfolding
Technique: differential scanning fluorimetry
Tested at: 5.5 µM
Direction: higher = more unfolded
DCAF1: DDB1- and CUL4-associated factor 1 (DCAF1, Homo sapiens, UniProt Q9Y4B6)
UniProt Q9Y4B6, sequence (whole entry, looked up): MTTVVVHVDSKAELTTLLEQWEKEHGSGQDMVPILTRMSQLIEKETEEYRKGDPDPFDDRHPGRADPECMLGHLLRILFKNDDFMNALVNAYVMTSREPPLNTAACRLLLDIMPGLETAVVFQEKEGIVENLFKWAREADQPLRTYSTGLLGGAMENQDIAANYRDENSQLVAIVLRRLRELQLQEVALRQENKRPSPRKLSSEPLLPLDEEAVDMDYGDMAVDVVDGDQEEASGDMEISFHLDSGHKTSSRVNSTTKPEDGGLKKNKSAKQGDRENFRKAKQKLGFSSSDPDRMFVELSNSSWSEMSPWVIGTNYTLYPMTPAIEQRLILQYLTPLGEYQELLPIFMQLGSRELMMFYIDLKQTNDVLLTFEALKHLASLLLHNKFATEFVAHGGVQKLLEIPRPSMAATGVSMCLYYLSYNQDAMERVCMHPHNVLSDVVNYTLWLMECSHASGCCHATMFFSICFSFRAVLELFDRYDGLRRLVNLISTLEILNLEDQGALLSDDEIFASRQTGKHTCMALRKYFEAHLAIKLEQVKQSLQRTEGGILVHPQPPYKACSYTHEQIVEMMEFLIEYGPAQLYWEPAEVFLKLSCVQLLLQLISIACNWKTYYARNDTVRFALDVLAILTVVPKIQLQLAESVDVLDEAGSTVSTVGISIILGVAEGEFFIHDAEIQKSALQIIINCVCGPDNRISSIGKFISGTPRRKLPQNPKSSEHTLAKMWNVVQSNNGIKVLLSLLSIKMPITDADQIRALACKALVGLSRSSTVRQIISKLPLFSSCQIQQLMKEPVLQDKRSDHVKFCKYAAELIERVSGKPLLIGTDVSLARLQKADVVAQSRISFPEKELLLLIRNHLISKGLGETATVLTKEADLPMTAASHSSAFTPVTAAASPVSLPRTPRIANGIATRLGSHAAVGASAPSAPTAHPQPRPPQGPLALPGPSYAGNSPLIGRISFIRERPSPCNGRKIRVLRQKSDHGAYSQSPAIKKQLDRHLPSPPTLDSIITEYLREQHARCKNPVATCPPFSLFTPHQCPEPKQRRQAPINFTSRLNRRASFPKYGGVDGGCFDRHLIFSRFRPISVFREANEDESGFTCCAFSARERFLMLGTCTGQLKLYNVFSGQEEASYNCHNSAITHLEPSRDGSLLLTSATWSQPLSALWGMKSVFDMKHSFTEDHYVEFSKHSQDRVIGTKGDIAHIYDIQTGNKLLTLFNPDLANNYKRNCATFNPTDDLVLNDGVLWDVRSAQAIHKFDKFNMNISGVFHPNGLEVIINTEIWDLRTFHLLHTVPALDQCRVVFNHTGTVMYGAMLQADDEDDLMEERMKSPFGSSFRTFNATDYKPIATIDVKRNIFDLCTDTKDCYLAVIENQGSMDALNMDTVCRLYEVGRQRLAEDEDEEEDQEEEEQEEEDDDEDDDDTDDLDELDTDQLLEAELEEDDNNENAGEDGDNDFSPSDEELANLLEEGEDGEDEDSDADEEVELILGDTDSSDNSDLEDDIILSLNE
WDR5: WD repeat-containing protein 5 (WDR5, Homo sapiens, UniProt P61964)
The “SYPRO Orange fluorescence” was 15300 a.u. (DCAF1; 51.2 °C).
The “SYPRO Orange fluorescence” was 14600 a.u. (WDR5; 31.8 °C).
The “SYPRO Orange fluorescence” was 31200 a.u. (DCAF1; 93.81 °C).
The “SYPRO Orange fluorescence” was 11000 a.u. (DCAF1; 42 °C).
WDR5; 56.01 °C — “SYPRO Orange fluorescence”: 13000 a.u.
DCAF1; 89.41 °C — “SYPRO Orange fluorescence”: 35700 a.u.
The “SYPRO Orange fluorescence” was 38000 a.u. (DCAF1; 86.81 °C).

Set 2
SMILES: Cc1ccc(O)c(C)c1-c1cnc2[nH]c(-c3cnc(N4CCC(CN5CCN(c6ccc(NC7CCC(=O)NC7=O)cc6F)CC5)CC4)nc3)cc2c1C#N (centres unmarked)
Medium: plasma
Route: oral
It gave 1170 ng·h/mL for AUC(0-last) (Beagle dog, male; 5 mg/kg).
For Sprague-Dawley rat, male; 10 mg/kg: AUC(0-last) read 6390 ng·h/mL.
It gave 1040 ng·h/mL for AUC(0-last) (cynomolgus monkey, male; 10 mg/kg).

Set 3
Structure (SMILES): CCN1/C(=C/C=C2\CCCC(/C=C/C3=[N+](CC)c4ccccc4C3(C)C)=C2NCCCCCCCCN2CCC(Nc3nc4ccccc4n3Cc3ccc(F)cc3)CC2)C(C)(C)c2ccccc21
Cell line: U-87 MG
Tested at: concentration not given
Relative to: DMSO
It gave 1.81 for “log2 fold change” (measured: MFAP3L mRNA).
measured: PTGER2 mRNA — “log2 fold change”: -2.74.
For measured: RNASE1 mRNA: “log2 fold change” read -2.93.
measured: NUAK2 mRNA — “log2 fold change”: -1.74.
The “log2 fold change” was -6.49 (measured: PADI1 mRNA).
The “log2 fold change” was -1.58 (measured: MTFR2 mRNA).
The “log2 fold change” was -0.827 (measured: DARS2 mRNA).
The “log2 fold change” was -2.62 (measured: CDK15 mRNA).
For measured: PROX1 mRNA: “log2 fold change” read 2.5.
measured: TGM2 mRNA — “log2 fold change”: -1.45.
It gave 1.82 for “log2 fold change” (measured: BTG1 mRNA).

Further values, each from its own experiment
For `CC[C@@]1(c2cccc(C(F)(F)F)c2)C2=C(Nc3n[nH]cc31)[C@H](F)C(C)(C)CC2=O` (single isomer, unassigned), the efflux ratio was 41 (ABCB1 (Homo sapiens, UniProt P08183)).
Under DDR1 autophosphorylation, `O=C(Nc1ccccc1)c1cccc(Oc2ccc3nccn3n2)c1` is recorded as “no inhibition” (HeLa transfected with DDR1b; receptor autophosphorylation, inhibitor, western blot; concentration not given, 24 h, together with: collagen I).

For quick reference, copied from above (set 1):
WDR5; 56.01 °C — “SYPRO Orange fluorescence”: 13000 a.u.
DCAF1; 89.41 °C — “SYPRO Orange fluorescence”: 35700 a.u.
